Measurements pooled from the literature.
Parts stem from different laboratories: compare values within a part only.
UniProt Q15418, sequence (whole entry, looked up): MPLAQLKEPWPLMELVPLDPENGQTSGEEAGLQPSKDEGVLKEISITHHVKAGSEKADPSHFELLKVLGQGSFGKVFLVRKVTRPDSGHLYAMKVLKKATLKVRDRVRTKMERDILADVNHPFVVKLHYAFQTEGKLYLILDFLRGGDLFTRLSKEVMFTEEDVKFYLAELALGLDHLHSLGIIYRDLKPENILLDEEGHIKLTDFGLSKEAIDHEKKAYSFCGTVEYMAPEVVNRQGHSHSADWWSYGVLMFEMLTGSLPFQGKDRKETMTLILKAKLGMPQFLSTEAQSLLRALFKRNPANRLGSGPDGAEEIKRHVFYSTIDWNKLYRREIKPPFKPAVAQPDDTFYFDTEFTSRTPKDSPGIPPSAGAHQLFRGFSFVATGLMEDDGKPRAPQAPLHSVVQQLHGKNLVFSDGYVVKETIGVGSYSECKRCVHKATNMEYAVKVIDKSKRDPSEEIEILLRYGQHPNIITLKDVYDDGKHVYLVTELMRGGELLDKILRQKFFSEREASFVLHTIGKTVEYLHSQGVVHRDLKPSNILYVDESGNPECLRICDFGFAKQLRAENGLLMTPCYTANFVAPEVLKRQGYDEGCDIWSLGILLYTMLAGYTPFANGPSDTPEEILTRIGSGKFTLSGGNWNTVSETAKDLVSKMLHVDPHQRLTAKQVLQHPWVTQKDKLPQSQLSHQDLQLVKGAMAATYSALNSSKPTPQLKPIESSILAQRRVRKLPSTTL
UniProt Q9Y2H9, sequence (whole entry, looked up): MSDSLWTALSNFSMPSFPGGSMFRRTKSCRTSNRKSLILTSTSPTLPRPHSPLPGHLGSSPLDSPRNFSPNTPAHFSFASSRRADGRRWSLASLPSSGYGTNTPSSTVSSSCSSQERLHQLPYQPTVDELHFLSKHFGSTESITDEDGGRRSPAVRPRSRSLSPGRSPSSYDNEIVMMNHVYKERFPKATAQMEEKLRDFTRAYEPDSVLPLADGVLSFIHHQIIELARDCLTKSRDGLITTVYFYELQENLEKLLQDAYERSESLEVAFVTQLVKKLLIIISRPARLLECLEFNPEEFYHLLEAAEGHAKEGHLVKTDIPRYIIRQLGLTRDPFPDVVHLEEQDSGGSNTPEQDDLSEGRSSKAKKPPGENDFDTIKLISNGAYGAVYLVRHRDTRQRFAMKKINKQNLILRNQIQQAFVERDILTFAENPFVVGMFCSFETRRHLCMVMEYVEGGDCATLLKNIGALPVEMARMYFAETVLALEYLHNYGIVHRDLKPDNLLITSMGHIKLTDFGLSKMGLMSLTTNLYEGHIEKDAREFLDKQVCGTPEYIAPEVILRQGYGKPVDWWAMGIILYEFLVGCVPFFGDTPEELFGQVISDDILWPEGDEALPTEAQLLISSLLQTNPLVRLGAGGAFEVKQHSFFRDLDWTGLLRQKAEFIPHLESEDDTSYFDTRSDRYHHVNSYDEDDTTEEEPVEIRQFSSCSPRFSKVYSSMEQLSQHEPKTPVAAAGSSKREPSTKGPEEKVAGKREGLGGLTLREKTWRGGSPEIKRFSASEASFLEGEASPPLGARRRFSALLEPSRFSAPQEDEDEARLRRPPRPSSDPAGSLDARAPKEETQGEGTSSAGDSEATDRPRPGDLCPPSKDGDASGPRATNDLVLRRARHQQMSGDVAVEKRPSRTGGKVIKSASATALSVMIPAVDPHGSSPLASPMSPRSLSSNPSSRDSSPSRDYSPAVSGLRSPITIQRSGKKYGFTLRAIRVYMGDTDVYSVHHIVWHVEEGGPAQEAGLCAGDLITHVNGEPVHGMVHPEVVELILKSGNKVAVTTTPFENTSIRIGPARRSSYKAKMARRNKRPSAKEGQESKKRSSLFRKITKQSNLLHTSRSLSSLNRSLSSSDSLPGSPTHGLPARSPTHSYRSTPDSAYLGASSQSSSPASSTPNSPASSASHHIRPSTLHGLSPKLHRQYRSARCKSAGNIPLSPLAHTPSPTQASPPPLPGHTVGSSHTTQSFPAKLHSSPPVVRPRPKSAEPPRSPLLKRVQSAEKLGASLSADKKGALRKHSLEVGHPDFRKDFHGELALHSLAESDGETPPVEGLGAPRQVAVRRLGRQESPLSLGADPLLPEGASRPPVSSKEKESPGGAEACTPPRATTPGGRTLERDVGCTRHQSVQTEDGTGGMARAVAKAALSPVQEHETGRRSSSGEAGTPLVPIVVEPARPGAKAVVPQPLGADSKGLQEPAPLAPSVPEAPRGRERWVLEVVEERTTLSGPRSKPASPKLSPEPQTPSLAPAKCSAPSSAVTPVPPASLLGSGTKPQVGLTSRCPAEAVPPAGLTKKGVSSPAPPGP
UniProt Q02779, sequence (whole entry, looked up): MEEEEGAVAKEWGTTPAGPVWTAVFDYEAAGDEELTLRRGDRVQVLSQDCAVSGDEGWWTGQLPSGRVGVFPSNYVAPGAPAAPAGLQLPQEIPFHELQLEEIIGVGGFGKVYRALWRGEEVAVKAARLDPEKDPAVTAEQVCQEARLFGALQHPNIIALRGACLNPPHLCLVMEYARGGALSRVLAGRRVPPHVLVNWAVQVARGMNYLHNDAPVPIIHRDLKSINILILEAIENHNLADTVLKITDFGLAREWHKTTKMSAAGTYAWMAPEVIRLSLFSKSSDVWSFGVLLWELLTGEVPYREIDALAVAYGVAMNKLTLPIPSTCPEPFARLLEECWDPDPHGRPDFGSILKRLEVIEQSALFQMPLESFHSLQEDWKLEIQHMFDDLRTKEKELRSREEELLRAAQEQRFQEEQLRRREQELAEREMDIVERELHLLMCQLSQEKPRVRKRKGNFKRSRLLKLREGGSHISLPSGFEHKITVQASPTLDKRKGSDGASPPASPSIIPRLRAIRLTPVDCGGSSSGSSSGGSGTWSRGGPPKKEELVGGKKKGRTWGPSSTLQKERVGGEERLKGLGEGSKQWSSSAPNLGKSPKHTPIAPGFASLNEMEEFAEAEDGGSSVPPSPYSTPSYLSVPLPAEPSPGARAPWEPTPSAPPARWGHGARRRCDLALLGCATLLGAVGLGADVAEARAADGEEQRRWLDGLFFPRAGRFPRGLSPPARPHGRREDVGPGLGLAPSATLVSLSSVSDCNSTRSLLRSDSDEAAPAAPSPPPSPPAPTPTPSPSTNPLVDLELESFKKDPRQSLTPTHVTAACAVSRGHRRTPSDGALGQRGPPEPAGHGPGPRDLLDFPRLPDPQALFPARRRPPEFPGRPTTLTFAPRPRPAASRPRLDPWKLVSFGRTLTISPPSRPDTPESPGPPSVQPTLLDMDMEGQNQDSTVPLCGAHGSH
UniProt Q9BYT3, sequence (whole entry, looked up): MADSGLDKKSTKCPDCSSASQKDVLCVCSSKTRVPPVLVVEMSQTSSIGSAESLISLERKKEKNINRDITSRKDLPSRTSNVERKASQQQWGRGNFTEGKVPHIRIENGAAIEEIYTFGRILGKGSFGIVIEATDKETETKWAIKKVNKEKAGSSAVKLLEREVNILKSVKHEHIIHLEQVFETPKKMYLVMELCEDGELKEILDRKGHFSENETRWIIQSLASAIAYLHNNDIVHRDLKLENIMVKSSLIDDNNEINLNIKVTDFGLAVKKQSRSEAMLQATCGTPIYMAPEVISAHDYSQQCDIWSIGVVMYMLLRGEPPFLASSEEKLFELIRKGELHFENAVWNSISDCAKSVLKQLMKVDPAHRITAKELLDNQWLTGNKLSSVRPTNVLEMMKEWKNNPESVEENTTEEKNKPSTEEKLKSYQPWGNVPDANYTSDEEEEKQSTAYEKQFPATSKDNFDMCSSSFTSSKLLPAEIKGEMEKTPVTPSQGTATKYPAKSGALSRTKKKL

Series 1 — read-out: enzyme activity; mode: inhibitor; concentration: 0.5 µM; relative to: control
Target: Protein kinase C epsilon type (PRKCE, Homo sapiens, UniProt Q02156)
UniProt Q02156, sequence (whole entry, looked up): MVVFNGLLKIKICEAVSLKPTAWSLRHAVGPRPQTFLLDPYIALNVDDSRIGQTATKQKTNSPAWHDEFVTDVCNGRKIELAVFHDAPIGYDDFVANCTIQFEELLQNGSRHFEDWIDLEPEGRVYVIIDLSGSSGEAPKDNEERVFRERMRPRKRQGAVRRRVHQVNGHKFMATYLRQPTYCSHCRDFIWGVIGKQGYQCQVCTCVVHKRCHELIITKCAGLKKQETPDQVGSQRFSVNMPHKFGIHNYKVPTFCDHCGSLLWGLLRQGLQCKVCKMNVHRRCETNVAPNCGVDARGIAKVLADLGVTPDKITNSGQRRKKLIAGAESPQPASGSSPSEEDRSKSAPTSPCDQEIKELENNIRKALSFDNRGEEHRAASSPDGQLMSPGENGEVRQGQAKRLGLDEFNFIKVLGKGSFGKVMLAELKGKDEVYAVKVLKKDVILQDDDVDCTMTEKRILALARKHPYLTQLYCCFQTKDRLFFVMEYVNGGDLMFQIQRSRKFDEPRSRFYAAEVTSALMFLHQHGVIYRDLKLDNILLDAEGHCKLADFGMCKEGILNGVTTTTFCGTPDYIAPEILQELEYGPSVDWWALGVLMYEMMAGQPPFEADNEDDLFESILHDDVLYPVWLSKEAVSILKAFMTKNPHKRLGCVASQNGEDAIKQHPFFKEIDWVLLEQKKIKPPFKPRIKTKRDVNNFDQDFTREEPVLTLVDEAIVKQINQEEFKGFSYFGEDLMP
Compound	remaining activity [%]
CN(C)c1ccc(C=C2C(=O)Nc3ccccc32)cc1	92.6
COc1cc2ncnc(Nc3ccc(F)c(Cl)c3)c2cc1OCCCN1CCOCC1	97.3
Cn1sc(=O)n(Cc2ccccc2)c1=O	94.8
C#Cc1cccc(Nc2ncnc3cc(OCCOC)c(OCCOC)cc23)c1	98.5
COc1cc2ncnc(Nc3ccc(Oc4ccccc4)cc3)c2cc1OC	94.6
Oc1ccc(-c2nc(-c3ccncc3)c(-c3ccc(F)cc3)[nH]2)cc1	96
COc1ccc(OC)c2c(=S)c3ccccc3[nH]c12	93.3
N#CC(C#N)=C(N)/C(C#N)=C/c1ccc(O)cc1	89.3
CO[C@H]1C[C@@H]2CC[C@@H](C)[C@@](O)(O2)C(=O)C(=O)N2CCCC[C@H]2C(=O)O[C@H]([C@H](C)C[C@@H]2CC[C@@H](O)[C@H](OC)C2)CC(=O)[C@H](C)/C=C(\C)[C@@H](O)[C@@H](OC)C(=O)[C@H](C)C[C@H](C)/C=C/C=C/C=C/1C	105
OCC(O)CCON=C1C(c2c(O)[nH]c3ccccc23)=Nc2ccccc21 (stereo not shown)	92.2
O=C(CCCc1ccc(-c2ccccc2F)cc1)Nc1ccc(O)cc1	103
Cc1cccc(-c2[nH]c(C(C)(C)C)nc2-c2ccc3c(c2)OCO3)n1	97.9
O=C1NC(=O)C(c2cn(CCCn3ccnc3)c3ccccc23)=C1Nc1ccccc1	12.8
CC(C)[C@H](CO)Nc1nc(Nc2cc(N)cc(Cl)c2)c2ncn(C(C)C)c2n1	105
O=C(O)c1ccc2c3c1cccc3c(=O)n1c3ccccc3nc21	113
COc1ccc(C(=O)Nc2sc3c(c2C(N)=O)CCCC3)cc1OC	95

Series 2 — read-out: cell-free assay; method: competition with immobilised ligand; concentration: 1 µM
SMILES: COc1cccc(CNC(=O)c2nc3scc(COCc4ccc(C(=O)O)cc4)c3c(=O)[nH]2)c1
target	remaining binding [%]
Serine/threonine-protein kinase 33 (STK33, Homo sapiens, UniProt Q9BYT3)	100
Mitogen-activated protein kinase kinase kinase 10 (MAP3K10, Homo sapiens, UniProt Q02779)	100
Ribosomal protein S6 kinase alpha-1, N-terminal kinase domain (RPS6KA1, Homo sapiens, UniProt Q15418)	100
G protein-coupled receptor kinase 3 (GRK3, Homo sapiens, UniProt P35626)	72.5
Microtubule-associated serine/threonine-protein kinase 1 (MAST1, Homo sapiens, UniProt Q9Y2H9)	84.4
Tyrosine-protein kinase receptor Tie-1 (TIE1, Homo sapiens, UniProt P35590)	100
Hormonally up-regulated neu tumor-associated kinase (HUNK, Homo sapiens, UniProt P57058)	100
Ribosomal protein S6 kinase alpha-1, C-terminal kinase domain (RPS6KA1, Homo sapiens, UniProt Q15418)	100

Series 3 — cell line: A-375; concentration: 100 µM; time: 18 h
SMILES	viability [%]
Cn1c(=O)c2c(ncn2CC2OCCO2)n(C)c1=O	107
C=CC1=C(C(=O)O)N2C(=O)[C@@H](NC(=O)/C(=N\OCC(=O)O)c3csc(N)n3)[C@H]2SC1	105
Nc1nc(NC2CC2)c2ncn([C@H]3C=C[C@@H](CO)C3)c2n1	104
CC1=C(CC(=O)O)c2cc(F)ccc2/C1=C\c1ccc([S+](C)[O-])cc1 (stereo not shown)	98.9
Cn1nnc(-c2ccc(-c3ccc(N4C[C@H](CO)OC4=O)cc3F)cn2)n1	101
O=C(O)c1cc(-c2ccccc2)nc2ccccc12	85.8
O=C(O)c1ccccc1O	105
CN/C(=N/CCSCc1nc[nH]c1C)NC#N	90.4
CC[C@@]1(O)C(=O)OCc2c1cc1n(c2=O)Cc2cc3c(CN(C)C)c(O)ccc3nc2-1	61.4
Cc1cc(=O)oc2cc(O)ccc12	76.1

Series 4 — dose: dose not given; relative to: vehicle
Structure (SMILES): CC(=O)N[C@@H](Cc1c[nH]c2ccccc12)C(=O)N[C@@H](CCC(=O)C=[N+]=[N-])C(=O)OC(C)C
assay	test system	log2 fold change
measured: pseudouridine	mouse, EL4 tumour-bearing, EL4 tumour	-0.906
metabolomics, measured: AICA ribonucleotide	mouse, EL4 tumour	-0.349
measured: ribitol	mouse, EL4 tumour-bearing, EL4 tumour	-0.255
measured: N-methyl-GABA	mouse, EL4 tumour-bearing, EL4 tumour	-0.144
measured: xanthine	mouse, EL4 tumour-bearing, EL4 tumour	0.34
measured: stachydrine	mouse, EL4 tumour-bearing, EL4 tumour	-0.204
measured: 2-phosphoglycerate	mouse, EL4 tumour-bearing, EL4 tumour	0.714
measured: 1-methylhistidine	mouse, EL4 tumour-bearing, EL4 tumour	-1.17
measured: serotonin	mouse, EL4 tumour-bearing, EL4 tumour	0.0559
measured: trigonelline	mouse, EL4 tumour, tumour	0.192
measured: N1-Methyl-4-pyridone-3-carboxamide	mouse, EL4 tumour-bearing, EL4 tumour	-0.474
measured: nicotinamide riboside	Mus musculus, EL4 tumour	0.00367

Some of these lines once more (series 4):
assay	test system	log2 fold change
measured: N-methyl-GABA	mouse, EL4 tumour-bearing, EL4 tumour	-0.144
measured: trigonelline	mouse, EL4 tumour, tumour	0.192
measured: serotonin	mouse, EL4 tumour-bearing, EL4 tumour	0.0559
measured: nicotinamide riboside	Mus musculus, EL4 tumour	0.00367
measured: pseudouridine	mouse, EL4 tumour-bearing, EL4 tumour	-0.906
